# Results collected from several papers.
# A part holds a random share of what one study measured.

# Series 1
# Target: Histone acetyltransferase KAT6A, winged helix 1, GST fusion (KAT6A, Homo sapiens, UniProt Q92794, residues 1-85)
# Method: protein binding microarray
# Form: double-stranded DNA, one strand shown
# Matrix: in vitro
# Tested at: not given
# Notes: 8-mer, flanks averaged, mean of 2 arrays, mostly near background
# Relative to: not given
# Direction: higher = stronger binding
# Construct (chain): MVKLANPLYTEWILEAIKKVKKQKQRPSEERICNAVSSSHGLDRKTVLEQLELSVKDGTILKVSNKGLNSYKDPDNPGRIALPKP
Oligonucleotide,E-score
CACACATG,-0.0542
CATACCCC,-0.0193
TGGACACA,-0.0495
TGAACGAA,-0.197
TCATGCAA,-0.16
ACATAAGG,-0.0767
ACTCCACG,0.042
GAGAGCAC,-0.0726
ACGGCCTC,0.265
ACGATTCA,-0.0375
TAAACGGA,0.182
CACTTCAC,-0.00291
AGATATAT,-0.0979
ACGAATCC,-0.0943

# Series 2
# Target: Sal-like protein 4, full length isoform A (SALL4, Homo sapiens, UniProt Q9UJQ4, residues 1-1053)
# Sequence of UniProt Q9UJQ4 (whole entry, looked up): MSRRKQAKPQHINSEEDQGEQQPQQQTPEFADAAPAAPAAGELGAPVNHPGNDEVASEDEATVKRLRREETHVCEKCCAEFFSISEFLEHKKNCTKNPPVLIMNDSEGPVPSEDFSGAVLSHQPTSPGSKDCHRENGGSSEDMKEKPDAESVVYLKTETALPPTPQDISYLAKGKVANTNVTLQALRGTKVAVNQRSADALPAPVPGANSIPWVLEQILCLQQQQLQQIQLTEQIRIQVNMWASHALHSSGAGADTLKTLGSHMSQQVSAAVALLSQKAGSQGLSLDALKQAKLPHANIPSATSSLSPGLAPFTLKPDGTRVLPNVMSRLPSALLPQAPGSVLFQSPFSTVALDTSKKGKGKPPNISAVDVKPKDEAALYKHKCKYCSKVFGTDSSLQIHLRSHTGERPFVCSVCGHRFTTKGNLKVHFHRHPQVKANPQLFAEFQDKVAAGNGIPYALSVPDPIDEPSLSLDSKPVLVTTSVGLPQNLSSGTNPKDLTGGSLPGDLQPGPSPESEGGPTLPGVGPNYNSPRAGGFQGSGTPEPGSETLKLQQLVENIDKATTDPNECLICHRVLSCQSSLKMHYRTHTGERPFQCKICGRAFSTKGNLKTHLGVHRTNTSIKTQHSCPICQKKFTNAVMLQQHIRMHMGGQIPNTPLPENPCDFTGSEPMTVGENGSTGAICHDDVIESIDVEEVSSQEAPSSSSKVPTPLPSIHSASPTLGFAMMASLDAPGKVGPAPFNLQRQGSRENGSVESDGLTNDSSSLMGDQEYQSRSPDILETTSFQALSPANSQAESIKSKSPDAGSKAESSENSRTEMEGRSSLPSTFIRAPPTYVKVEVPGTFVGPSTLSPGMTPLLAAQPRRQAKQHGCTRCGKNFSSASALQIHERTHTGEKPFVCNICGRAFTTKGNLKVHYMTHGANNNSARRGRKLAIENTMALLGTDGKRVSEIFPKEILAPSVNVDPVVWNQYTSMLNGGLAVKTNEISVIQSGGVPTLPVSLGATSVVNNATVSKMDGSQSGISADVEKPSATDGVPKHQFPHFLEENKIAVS
# Method: universal PBM
# Form: double-stranded DNA, one strand shown
# Matrix: in vitro
# Tested at: 600 nM
# Notes: 8-mer, flanks averaged, mean of replicates
# Direction: higher = stronger binding
Oligonucleotide,E-score
ACAAAGCT,0.0616
GGAAAGAC,-0.157
ACCAGATG,-0.0547
AACCGACA,0.0486
CTACGCGA,-0.162
CGTTGTAA,0.0733
ACTAGCCG,-0.241
CCCAATCG,-0.206
GCGGCACC,-0.31
AAATATGC,0.292
ATTGTCAC,0.169
CTCCCTAA,-0.0458
CAGATGAG,-0.0222
GAACTAGA,0.117

# Single results of other studies
Substance,tested on,test,system,setting,scale,endpoint,result
LLRRLQDVANDRG,Saccharomyces cerevisiae,"peptide binding, yeast competitive growth sequencing","peptide, cyclin-Cln2 fusion strain","concentration not given, library 2",direction not given,binding score,0.661
"PhoQ, residues 284 288 289 292 302 303 SLCLSL","PhoP, residues 12 14 15 18 19 VQALL (Escherichia coli, UniProt P23836)","Sort-seq, item: YFP reporter",E. coli,"PhoQ-PhoP variant library, together with: 10 µM Mg2+","relative to: high Mg2+ state, higher = stronger signaling",fold induction,1.5
LLKRLQDVVSERA,Saccharomyces cerevisiae,"peptide binding, yeast competitive growth sequencing","peptide, cyclin-Cln2 fusion strain","concentration not given, library 2",direction not given,binding score,0.874

# Excerpt of the above (series 2):
Oligonucleotide,E-score
ATTGTCAC,0.169
ACTAGCCG,-0.241
